Assay results of several laboratories.
Compare with care: the assays were run in different laboratories.

CC(C)(C)ONc1nc(Nc2ccnc(C(F)(F)F)c2)nc(-c2cccc(C(F)(F)F)n2)n1
time to tumour 2-HG reduction (refers to: 2-hydroxyglutarate; mouse U-87 MG IDH2 R140Q xenograft; oral, 18.05 and 54.14 mg/kg): ≤ 0.5 h

CSc1cc(C)[nH]c(=O)c1CN1CCc2c(Cl)c3c(c(C)c2C1=O)OC(C)(C1CCC(N(C)C)CC1)O3 (stereo not shown)
time to tumour regression (mouse, KARPAS-422 xenograft; oral, 25 mg/kg once daily): ~5 days

Cc1cc(NC(=O)[C@H](O)c2cc(F)cc(F)c2)ccc1-c1cnc(N)c(C(=O)NC(C)C)c1
time to pPERK baseline (refers to: phospho-PERK; mouse 786-O xenograft, tumour; 30 mg/kg): ≤ 8 h

C=CC(=O)Nc1cccc(-c2cnc3[nH]cc(C(=O)NC(C)(C)C)c3n2)c1
time to phospho-STAT3 decrease (mouse, NK-S1 xenograft, tumour; ip, 50 mg/kg): 8 h

CC1(C)C(=CC=C2C[N+](C)(C)CC(C=CC3=[N+](CCCCCC(=O)O)c4ccccc4C3(C)C)=C2Cl)N(CCCCCC(=O)O)c2ccccc21
time of high tumour contrast (NIR imaging; C57BL/6 mouse, E0771 tumour; intravenous, 25 nmol): 4 h

CC(C)c1cnc(-c2cc(Cl)ccc2F)cc1Nc1ccncc1C(=O)NC(CO)CO
time to pSMAD2 inhibition (mouse, 4T1 tumour, tumour; dose not given, twice daily dosing): ≤ 1 h

CC1(C)C(/C=C/C2=C(Cl)C(=C/C=C3/N(CCCCCC(=O)O)c4ccccc4C3(C)C)/C[N+](C)(C)C2)=[N+](CCCCCC(=O)O)c2ccccc21
time to peak tumour-to-background (mouse, NIT-1 pancreatic tumour; intravenous, 25 nmol, observed over 8 h): 8 h

CC(C)(O)c1ccc(N2Cc3c(ccnc3-c3ccc(F)cc3OCC(F)(F)F)C2=O)cc1
time of maximal reduction (refers to: glucosylceramide; mouse, plasma; oral, 10 mg/kg): 8 h

C=CC(=O)Nc1ccc(F)c(-c2ncnc3[nH]cc(C(=O)OCC)c23)c1
time to pSTAT5 and pS6 reduction (CD4 T-cell blasts, mouse; dose not given, added at second wave onset, added: IL-2): ≤ 30 min

Cc1cccc(C)c1Nc1nn(C)c2nc(Nc3ccc4c(c3)CN(CC3CCN(c5ccc6c(c5)C(=O)N(C5CCC(=O)NC5=O)C6=O)CC3)CC4)ncc12 (stereo not shown)
time to complete regression (mouse, TMD8 xenograft; oral, 10 or 30 mg/kg daily, 3 weeks): ≤ 15 days

Repeated from above:
C=CC(=O)Nc1cccc(-c2cnc3[nH]cc(C(=O)NC(C)(C)C)c3n2)c1
time to phospho-STAT3 decrease (mouse, NK-S1 xenograft, tumour; ip, 50 mg/kg): 8 h
